Measurements gathered from unrelated publications.
Lines come from different studies, so protocols differ. Values joined by “and” are separate records of one study, mostly repeats; a detail may differ. ± marks the error that the study gave. Square brackets hold non-standard residues; d marks the D form. Ends that are not written are not given here.
ACE2: Angiotensin-converting enzyme 2 (ACE2, Homo sapiens, UniProt Q9BYF1)
Sequence of UniProt P02675 (whole entry, looked up): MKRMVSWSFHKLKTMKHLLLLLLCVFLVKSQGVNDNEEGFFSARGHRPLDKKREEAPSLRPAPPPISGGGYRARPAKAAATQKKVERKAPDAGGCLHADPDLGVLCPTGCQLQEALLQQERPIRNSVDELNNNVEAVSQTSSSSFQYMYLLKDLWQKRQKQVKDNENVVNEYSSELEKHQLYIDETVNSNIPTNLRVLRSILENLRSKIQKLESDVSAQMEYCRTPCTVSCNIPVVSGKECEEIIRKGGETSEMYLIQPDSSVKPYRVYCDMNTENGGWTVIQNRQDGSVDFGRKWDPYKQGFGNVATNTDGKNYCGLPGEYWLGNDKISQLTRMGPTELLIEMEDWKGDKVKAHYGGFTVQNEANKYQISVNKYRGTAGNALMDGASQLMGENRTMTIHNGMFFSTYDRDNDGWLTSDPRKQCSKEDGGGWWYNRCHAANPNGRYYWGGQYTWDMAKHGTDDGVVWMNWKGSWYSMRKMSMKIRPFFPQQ
Sequence of UniProt P02679 (whole entry, looked up): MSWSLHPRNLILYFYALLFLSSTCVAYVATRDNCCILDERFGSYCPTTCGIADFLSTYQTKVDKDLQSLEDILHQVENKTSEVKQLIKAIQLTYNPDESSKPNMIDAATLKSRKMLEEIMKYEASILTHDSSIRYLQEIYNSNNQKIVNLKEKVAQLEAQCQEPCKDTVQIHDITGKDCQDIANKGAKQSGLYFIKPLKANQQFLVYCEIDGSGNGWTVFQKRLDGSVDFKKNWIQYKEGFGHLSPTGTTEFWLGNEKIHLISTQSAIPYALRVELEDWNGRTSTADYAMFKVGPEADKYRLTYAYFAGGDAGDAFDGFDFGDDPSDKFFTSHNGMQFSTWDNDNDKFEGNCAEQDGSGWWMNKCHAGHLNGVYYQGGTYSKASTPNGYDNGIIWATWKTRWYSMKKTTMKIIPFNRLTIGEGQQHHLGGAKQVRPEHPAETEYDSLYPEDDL
Sequence of UniProt P02671 (whole entry, looked up): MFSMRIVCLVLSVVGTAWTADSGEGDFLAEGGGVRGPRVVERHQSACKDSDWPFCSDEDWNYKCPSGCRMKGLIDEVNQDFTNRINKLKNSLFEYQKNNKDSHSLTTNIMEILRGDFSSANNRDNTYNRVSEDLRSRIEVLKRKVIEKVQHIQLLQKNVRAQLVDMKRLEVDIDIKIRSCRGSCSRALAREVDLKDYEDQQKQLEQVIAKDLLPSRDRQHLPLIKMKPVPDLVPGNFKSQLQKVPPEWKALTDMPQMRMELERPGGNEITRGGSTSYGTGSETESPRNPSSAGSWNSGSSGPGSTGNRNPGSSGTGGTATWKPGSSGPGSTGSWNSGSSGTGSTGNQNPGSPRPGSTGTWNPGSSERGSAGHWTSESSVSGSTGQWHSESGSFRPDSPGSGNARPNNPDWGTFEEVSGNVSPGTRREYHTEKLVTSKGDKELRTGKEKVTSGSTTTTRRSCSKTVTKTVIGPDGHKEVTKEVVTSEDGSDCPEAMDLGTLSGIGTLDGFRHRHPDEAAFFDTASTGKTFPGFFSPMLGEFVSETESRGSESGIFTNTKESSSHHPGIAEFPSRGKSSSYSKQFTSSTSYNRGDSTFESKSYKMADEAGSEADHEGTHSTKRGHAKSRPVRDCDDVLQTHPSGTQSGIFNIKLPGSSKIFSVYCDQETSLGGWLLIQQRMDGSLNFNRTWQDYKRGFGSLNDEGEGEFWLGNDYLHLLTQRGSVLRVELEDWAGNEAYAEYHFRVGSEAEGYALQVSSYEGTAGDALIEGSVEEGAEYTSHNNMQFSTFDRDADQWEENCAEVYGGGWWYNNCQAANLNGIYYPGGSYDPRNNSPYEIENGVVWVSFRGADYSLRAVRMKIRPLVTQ
Sequence of UniProt Q9BYF1 (whole entry, looked up): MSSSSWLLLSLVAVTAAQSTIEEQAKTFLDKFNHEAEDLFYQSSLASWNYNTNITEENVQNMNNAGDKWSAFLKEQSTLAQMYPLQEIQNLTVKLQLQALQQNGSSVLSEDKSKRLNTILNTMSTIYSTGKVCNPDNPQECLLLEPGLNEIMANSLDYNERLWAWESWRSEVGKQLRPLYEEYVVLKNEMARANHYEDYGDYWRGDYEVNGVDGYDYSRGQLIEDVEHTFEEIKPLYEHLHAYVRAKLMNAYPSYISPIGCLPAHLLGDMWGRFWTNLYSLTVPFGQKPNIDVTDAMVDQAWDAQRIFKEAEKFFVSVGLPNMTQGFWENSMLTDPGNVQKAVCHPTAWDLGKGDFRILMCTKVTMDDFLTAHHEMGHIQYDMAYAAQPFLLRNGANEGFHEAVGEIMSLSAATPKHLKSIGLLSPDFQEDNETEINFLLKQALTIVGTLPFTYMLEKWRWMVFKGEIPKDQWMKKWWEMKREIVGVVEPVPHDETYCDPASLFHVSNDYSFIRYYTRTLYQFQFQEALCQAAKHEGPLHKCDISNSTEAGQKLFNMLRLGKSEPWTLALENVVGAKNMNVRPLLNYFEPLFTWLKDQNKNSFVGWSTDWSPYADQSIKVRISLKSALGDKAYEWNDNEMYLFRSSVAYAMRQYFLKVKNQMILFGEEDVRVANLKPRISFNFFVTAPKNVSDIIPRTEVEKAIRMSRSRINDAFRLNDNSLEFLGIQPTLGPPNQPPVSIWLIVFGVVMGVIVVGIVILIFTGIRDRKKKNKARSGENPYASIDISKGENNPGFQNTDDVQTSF
Sequence of UniProt Q96C45 (whole entry, looked up): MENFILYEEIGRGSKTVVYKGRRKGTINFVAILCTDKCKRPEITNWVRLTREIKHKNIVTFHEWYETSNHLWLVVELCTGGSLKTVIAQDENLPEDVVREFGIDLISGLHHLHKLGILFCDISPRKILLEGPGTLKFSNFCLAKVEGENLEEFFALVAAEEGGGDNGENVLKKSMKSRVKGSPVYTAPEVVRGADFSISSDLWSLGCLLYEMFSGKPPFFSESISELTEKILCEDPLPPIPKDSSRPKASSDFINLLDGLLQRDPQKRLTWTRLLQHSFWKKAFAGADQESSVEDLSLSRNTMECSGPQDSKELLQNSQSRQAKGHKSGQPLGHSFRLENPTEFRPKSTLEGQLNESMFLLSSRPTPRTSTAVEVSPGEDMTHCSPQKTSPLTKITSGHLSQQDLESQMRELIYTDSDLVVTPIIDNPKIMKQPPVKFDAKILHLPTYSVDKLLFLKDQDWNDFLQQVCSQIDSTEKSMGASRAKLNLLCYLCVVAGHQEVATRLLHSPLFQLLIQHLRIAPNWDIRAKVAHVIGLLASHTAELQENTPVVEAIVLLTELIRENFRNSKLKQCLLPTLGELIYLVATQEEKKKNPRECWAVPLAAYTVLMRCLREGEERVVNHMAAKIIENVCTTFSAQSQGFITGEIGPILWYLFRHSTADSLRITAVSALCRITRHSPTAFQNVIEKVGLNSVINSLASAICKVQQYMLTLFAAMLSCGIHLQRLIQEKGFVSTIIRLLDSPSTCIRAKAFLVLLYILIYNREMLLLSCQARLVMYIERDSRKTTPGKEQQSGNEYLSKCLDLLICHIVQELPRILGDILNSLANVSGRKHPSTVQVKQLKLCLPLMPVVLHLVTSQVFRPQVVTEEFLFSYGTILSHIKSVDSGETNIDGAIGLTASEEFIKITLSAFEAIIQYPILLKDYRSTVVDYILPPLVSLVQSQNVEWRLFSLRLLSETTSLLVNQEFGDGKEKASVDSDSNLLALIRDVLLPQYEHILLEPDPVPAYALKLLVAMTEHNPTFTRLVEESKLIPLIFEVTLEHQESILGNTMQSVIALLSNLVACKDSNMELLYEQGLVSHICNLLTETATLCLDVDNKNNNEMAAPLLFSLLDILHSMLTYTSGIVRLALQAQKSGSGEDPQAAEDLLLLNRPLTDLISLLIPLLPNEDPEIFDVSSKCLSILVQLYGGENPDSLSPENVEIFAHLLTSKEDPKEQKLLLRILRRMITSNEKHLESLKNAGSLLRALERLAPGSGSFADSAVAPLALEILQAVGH
Sequence of UniProt Q14145 (whole entry, looked up): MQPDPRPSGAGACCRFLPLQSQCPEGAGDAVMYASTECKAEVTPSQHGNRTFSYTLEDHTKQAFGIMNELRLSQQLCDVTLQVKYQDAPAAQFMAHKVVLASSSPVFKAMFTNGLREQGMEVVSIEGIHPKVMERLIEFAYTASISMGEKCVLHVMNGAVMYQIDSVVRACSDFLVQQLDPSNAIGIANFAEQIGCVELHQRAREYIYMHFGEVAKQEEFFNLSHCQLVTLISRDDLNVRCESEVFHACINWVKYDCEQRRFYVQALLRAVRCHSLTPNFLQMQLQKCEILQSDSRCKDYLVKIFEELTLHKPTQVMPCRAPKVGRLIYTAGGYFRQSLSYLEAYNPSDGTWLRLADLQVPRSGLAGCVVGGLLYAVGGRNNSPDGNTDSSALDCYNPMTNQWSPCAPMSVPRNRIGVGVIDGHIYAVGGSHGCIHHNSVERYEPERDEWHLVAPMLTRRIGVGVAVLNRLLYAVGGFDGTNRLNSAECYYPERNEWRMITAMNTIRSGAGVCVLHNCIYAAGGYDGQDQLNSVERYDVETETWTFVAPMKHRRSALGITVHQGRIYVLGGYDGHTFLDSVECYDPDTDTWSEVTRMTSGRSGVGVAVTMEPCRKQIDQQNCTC
Sequence of UniProt Q9RFC8 (whole entry, looked up): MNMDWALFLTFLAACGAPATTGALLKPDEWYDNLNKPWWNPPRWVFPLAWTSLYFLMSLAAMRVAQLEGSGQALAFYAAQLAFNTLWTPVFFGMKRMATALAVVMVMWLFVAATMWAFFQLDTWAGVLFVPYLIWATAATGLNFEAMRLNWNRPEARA
Sequence of UniProt P00921 (whole entry, looked up): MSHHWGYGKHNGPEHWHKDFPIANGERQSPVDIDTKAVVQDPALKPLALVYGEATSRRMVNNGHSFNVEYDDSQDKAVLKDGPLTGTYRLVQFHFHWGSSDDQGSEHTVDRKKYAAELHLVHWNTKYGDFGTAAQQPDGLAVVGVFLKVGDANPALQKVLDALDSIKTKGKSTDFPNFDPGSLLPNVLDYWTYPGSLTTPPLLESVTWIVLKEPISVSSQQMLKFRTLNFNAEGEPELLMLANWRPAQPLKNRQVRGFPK

Substance	target or system	assay	system	conditions	measurement	result
phosphatidylserine	Tricalbin-1, C2C domain (TCB1, Saccharomyces cerevisiae, UniProt Q12466)	surface plasmon resonance	20 mol% lipid in DOPC	GST fusion protein, together with: Ca2+	Kd	0.95 ± 0.57 µM
O=C(N[C@H](CO)[C@H](O)c1ccc([N+](=O)[O-])cc1)C(Cl)Cl	Chloramphenicol acetyltransferase (cat, Escherichia coli, UniProt P62577)	ligand, native ESI-MS	–	third ligand binding, gas phase, together with: 200 mM ammonium acetate	Kd	130 ± 40 µM
CCCCCCCCCC[N+](CCC)(CCC)CCC	potassium channel	steady-state block	Doryteuthis pealeii	internal application, together with: membrane potential +100 mV	Kd	92 µM
[Zn+2]	Cytochrome b (petB, Rhodobacter capsulatus, UniProt D5ANZ3, E295V)	–	–	high-affinity site E295V	Kd	0.55 ± 0.09 µM
CN[C@@](C)(C[18F])C(=O)O	A549 tumour model	–	host not given, lung	15 min, tumour-bearing	tracer uptake	3.7 %ID/g
CCCCCCCCC[N+](CC)(CC)CC	potassium channel	steady-state block	Doryteuthis pealeii	internal application, together with: membrane potential +100 mV	Kd	4.1 µM
O=c1ccn([C@H]2C[C@H](O)[C@@H](COP(=O)(O)O)O2)c(=O)[nH]1	thyX (Thermotoga maritima, UniProt Q9WYT0)	–	–	–	Kd	0.03 ± 0.02 µM
CC[N+](CC)(CC)CC(=O)Nc1c(C)cccc1C	sodium channel (rat brain), batrachotoxin-modified	open channel block, blocker, planar lipid bilayer, single channel	–	high-Kd period, +60 mV	Kd	12000 µM
CC[C@H](C)[C@H](NC(=O)[C@H](Cc1c[nH]c2ccccc12)NC(=O)[C@@H]1CSSC[C@H](NC(=O)[C@H](CCC(=O)O)NC(=O)[C@H](Cc2c[nH]c3ccccc23)NC(=O)[C@H](CCC(N)=O)NC(=O)COCCOCCNC(=O)[C@H](CCC(=O)O)NC(=O)[C@H](Cc2c[nH]cn2)NC(=O)[C@@H](N)Cc2c[nH]cn2)C(=O)N2CCC[C@H]2C(=O)N[C@@H](Cc2ccc(O)cc2)C(=O)NCC(=O)N[C@@H](CC(C)C)C(=O)N1)C(=O)N[C@@H](CCC(N)=O)C(=O)O [technetium-99m labelled]	FGA/FGB/FGG, fibrin form (Homo sapiens, UniProt P02671+P02675+P02679)	binding, radioligand competition titration	human plasma fibrin clots	30 min, pH 7.4, 37 °C	Kd	~10 µM and ~10.2 µM
LKKLL[Orn]LLKKLLKLAG (Orn6; Orn = NCCC[C@H](N)C(=O)O)	HCV IRES domain IV hairpin RNA	binding, competitive fluorescence anisotropy	–	pH 7.4, 20 °C, together with: rhodamine-Rev probe	Kd	0.0061 ± 0.0003 µM
C/C=C/C[C@@H](C)C(=O)[C@H]1C(=O)N[C@@H](C(C)C)C(=O)N(C)CC(=O)N(C)[C@@H](CC(C)C)C(=O)N[C@@H](C(C)C)C(=O)N(C)[C@@H](CC(C)C)C(=O)N[C@@H](C)C(=O)N[C@H](C)C(=O)N(C)[C@@H](CC(C)C)C(=O)N(C)[C@@H](CC(C)C)C(=O)N(C)[C@@H](C(C)C)C(=O)N1C	Rgg3 Streptococcus pyogenes	competition fluorescence polarization	–	together with: FITC-SHP2-C8 10 nM	Kd	0.55 µM
CC[C@H](C)[C@H](NC(=O)[C@@H](CCCNC(=N)N)NC(=O)[C@H](CCCNC(=N)N)NC(=O)[C@@H]1CCCN1C(=O)[C@@H]1CCCN1C(=O)[C@H](CCCNC(=N)N)NC(=O)[C@@H]1CCCN1C(=O)[C@H](CCCNC(=N)N)NC(=O)[C@@H]1CCCN1C(=O)[C@H](CC(C)C)NC(=O)[C@H](Cc1ccc(O)cc1)NC(=O)[C@@H]1CCCN1C(=O)[C@@H]1CCCN1C(=O)[C@H](CCCCN)NC(=O)[C@H](CC(=O)O)NC(=O)[C@@H](N)C(C)C)C(=O)N[C@@H](Cc1ccc(O)cc1)C(=O)N[C@@H](CC(N)=O)C(=O)N[C@H](CCCNC(=N)N)C(N)=O	70S ribosome Staphylococcus aureus DSM 6247	binding, fluorescence polarization	–	90 min, pH 7.6, 28 °C, together with: fluorescein-labelled peptide	Kd	0.102 ± 0.005 µM
C[n+]1cn([C@@H]2O[C@H](COP(=O)(O)OP(=O)([O-])OP(=O)(O)OC[C@H]3O[C@@H](n4cnc5c(=O)[nH]c(N)nc54)[C@H](O)[C@@H]3O)[C@@H](O)[C@H]2O)c2nc(N)[nH]c(=O)c21	m7GpppX diphosphatase (DCS1, Saccharomyces cerevisiae, UniProt Q06151, H268N/K126A)	NMR titration	–	closed site, K126A H268N	Kd	0.112 µM
C=CC1=C(C)c2cc3[nH]c(cc4nc(cc5[nH]c(cc1n2)c(C)c5CCC(=O)O)C(CCC(=O)O)=C4C)c(C)c3C=C	tspO (Cereibacter sphaeroides, UniProt Q9RFC8)	binding, fluorescence	–	–	Kd	0.3 µM
O=C1c2cccc(O)c2C(=O)c2c(O)cc(CO)cc21	ACE2	binding, SPR	–	–	Kd	6.02 µM
CC#Cc1ccc2c(ccc3ccccc32)c1	Cytochrome P450 2A6 (CYP2A6, Homo sapiens, UniProt P11509)	binding, absorbance	–	pH 7.4	Kd	1.6 µM
C[C@@H]1O[C@@H](OC[C@H]2O[C@@H](Oc3c(-c4ccc(O)c(O)c4)oc4cc(O)cc(O)c4c3=O)[C@H](O)[C@@H](O)[C@@H]2O)[C@H](O)[C@H](O)[C@H]1O	ACE2	binding, SPR	–	–	Kd	82.4 µM

Substance	target or system	assay	system	conditions	measurement	result
N#Cc1ccc(/C=C/C(=O)O)cc1	acetylcholine binding protein (Bulinus truncatus)	binding, scintillation proximity	–	together with: 5 nM [3H]epibatidine	Kd	2.63 µM
cGMP	Potassium/sodium hyperpolarization-activated cyclic nucleotide-gated channel 2, C-terminal region (Hcn2, Mus musculus, UniProt O88703, R635A)	isothermal titration calorimetry	–	R635A, single-site model	Kd	4.61 ± 0.16 µM
O=C(CC1NCCCC1O)Cn1cnc2cc(Br)c(Cl)cc2c1=O (stereo not drawn)	Proline--tRNA ligase (Plasmodium falciparum, UniProt Q8I5R7)	binding, MST	–	–	Kd	0.0738 µM
CC#Cc1cc2ccccc2c2ccccc12	Cytochrome P450 2A13 (Homo sapiens, UniProt Q16696)	binding, absorbance	–	pH 7.4	Kd	6.4 µM
c1c[nH]cn1	Nitrophorin-1 (Rhodnius prolixus, UniProt Q26239, H82C)	binding, UV/Vis titration	–	pH 7.4, 25 °C, H60C mutant complex	Kd	120 ± 1e-05 µM
CCCCCCCCCCCCCCCC(=O)NCC(=O)O	Bifunctional cytochrome P450/NADPH--P450 reductase, heme domain (cyp102A1, Bacillus megaterium, UniProt P14779)	substrate binding, substrate, UV-vis spectral titration	–	pH 7.4, room temperature, wild-type heme domain	Kd	0.32 ± 0.01 µM
[2Fe-2S](GS)4	ATM1 (Saccharomyces cerevisiae, UniProt P40416, D398N)	ATPase stimulation, activator	–	D398N mutant, together with: MgATP	Kd	5.6 ± 0.8 µM
CC(=O)N[C@H](CCCNC(=N)N)C(=O)N[C@H](C)C(=O)N[C@H](CC(=O)O)C(=O)N[C@H](C)C(=O)N[C@H](CCCNC(=N)N)C(=O)N[C@H](C)C(=O)N[C@H](CC(=O)O)C(=O)N[C@H](C)C(=O)N[C@H](CCCNC(=N)N)C(=O)N[C@H](C)C(=O)N[C@H](CC(=O)O)C(=O)N[C@H](C)C(=O)N[C@H](CCCNC(=N)N)C(=O)N[C@H](C)C(=O)N[C@H](CC(=O)O)C(=O)N[C@H](C)C(N)=O	chymotrypsin	fluorescence polarization	–	30 min, pH 7.0, together with: FITC-labelled peptide	Kd	~0.227 µM
CCCCCCCCCCO	potassium channel	steady-state block	Doryteuthis pealeii	internal application, together with: membrane potential +100 mV	Kd	938 µM
CNc1ccccc1C(=O)O[C@H]1[C@@H](O)[C@H](n2cnc3c(N)ncnc32)O[C@@H]1COP(=O)(O)OP(=O)(O)O	Serine/threonine-protein kinase ULK4 (ULK4, Homo sapiens, UniProt Q96C45)	nucleotide binding, FRET	–	with Mg2+	Kd	28.6 µM
CC[C@@H](/C=C(/C)[C@H]1C[C@H](OC)C[C@@H](O)C(C)(C)[C@]2(O)O[C@H](C[C@H](OC)[C@@H](O)C(=O)O1)C[C@H](OC)[C@@H]2O)CO	Tubulin beta chain, microtubules (Bos taurus, UniProt Q6B856)	binding, Scatchard	bovine tubulin polymer	pH 6.6, 37 °C	Kd	0.35 µM
CC(C)C[C@@H]1NC(=O)[C@H](Cc2c[nH]cn2)NC(=O)[C@H](Cc2c[nH]c3ccccc23)NC(=O)[C@H](C)NC(=O)[C@@H]2CSSC[C@H](NC(=O)[C@H](Cc3c[nH]c4ccccc34)NC(=O)[C@H](C(C)C)NC(=O)[C@H](CC(C)C)NC(=O)[C@H](CCC(=O)O)NC(=O)CNC1=O)C(=O)N[C@@H]([C@@H](C)O)C(=O)N[C@H](C(N)=O)CSSC[C@H](NC(=O)CCOCCOCCOCCOCCOCCOCCNC(=O)CC[C@H](NC(=O)c1ccc(NCc3cnc4nc(N)[nH]c(=O)c4n3)cc1)C(=O)O)C(=O)N[C@@H](CC(=O)O)C(=O)N2	Immunoglobulin heavy constant gamma 1, Fc region (IGHG1, Homo sapiens, UniProt P01857)	binding, surface plasmon resonance	–	pH 7.4, together with: immobilised trastuzumab	Kd	0.0061 µM
CC(=O)N[C@@H](C)C(=O)N[C@@H](CC(N)=O)C(=O)NCC(=O)N[C@@H](CC(N)=O)C(=O)N[C@@H](C)C(=O)N[C@@H](CC(N)=O)C(=O)N[C@@H](CCC(=O)O)C(=O)N[C@@H](CCC(=O)O)C(=O)N[C@@H](CC(N)=O)C(=O)NCC(=O)N[C@@H](CCC(=O)O)C(=O)N[C@@H](CCC(N)=O)C(=O)N[C@@H](CCC(=O)O)C(=O)N[C@@H](C)C(=O)N[C@@H](CC(=O)O)C(=O)N[C@@H](CC(N)=O)C(=O)N[C@@H](CCC(=O)O)C(=O)N[C@H](C(=O)N[C@@H](CC(=O)O)C(N)=O)C(C)C	KEAP1 (Homo sapiens, UniProt Q14145)	binding, ITC	–	pH 7	Kd	2.62 µM
CC(=O)N[C@H]1C(O)O[C@H](CO)[C@@H](O[C@@H]2O[C@H](CO)[C@H](O)[C@H](O)[C@H]2O[C@@H]2O[C@@H](C)[C@@H](O)[C@@H](O)[C@@H]2O)[C@@H]1O (stereo partly drawn)	Lectin (Erythrina crista-galli, UniProt P83410)	BLI competition	–	solution Kd, together with: LacNAc-biotin biosensor	Kd	32 µM
C=CC1=C(C)c2cc3[nH]c(cc4nc(cc5[nH]c(cc1n2)c(C)c5C=C)C(C)=C4CCC(=O)O)c(CCC(=O)O)c3C.[Fe+3]	Heme-binding lipoprotein HupD (Listeria monocytogenes, UniProt Q8Y4K7)	binding, Trp fluorescence quenching	–	His tag removed	Kd	0.026 ± 0.005 µM
CN(C)c1cccc2c(S(N)(=O)=O)cccc12	CA2 (Bos taurus, UniProt P00921)	binding	–	–	Kd	0.374 µM

Repeated from above:
Substance	target or system	assay	system	conditions	measurement	result
CC(=O)N[C@H]1C(O)O[C@H](CO)[C@@H](O[C@@H]2O[C@H](CO)[C@H](O)[C@H](O)[C@H]2O[C@@H]2O[C@@H](C)[C@@H](O)[C@@H](O)[C@@H]2O)[C@@H]1O (stereo partly drawn)	Lectin (Erythrina crista-galli, UniProt P83410)	BLI competition	–	solution Kd, together with: LacNAc-biotin biosensor	Kd	32 µM
C=CC1=C(C)c2cc3[nH]c(cc4nc(cc5[nH]c(cc1n2)c(C)c5C=C)C(C)=C4CCC(=O)O)c(CCC(=O)O)c3C.[Fe+3]	Heme-binding lipoprotein HupD (Listeria monocytogenes, UniProt Q8Y4K7)	binding, Trp fluorescence quenching	–	His tag removed	Kd	0.026 ± 0.005 µM
CN(C)c1cccc2c(S(N)(=O)=O)cccc12	CA2 (Bos taurus, UniProt P00921)	binding	–	–	Kd	0.374 µM
